# Published values from different studies.
# Numbered parts are unrelated; each lists some results of a single study.
# Sequence of UniProt P42680 (whole entry, looked up): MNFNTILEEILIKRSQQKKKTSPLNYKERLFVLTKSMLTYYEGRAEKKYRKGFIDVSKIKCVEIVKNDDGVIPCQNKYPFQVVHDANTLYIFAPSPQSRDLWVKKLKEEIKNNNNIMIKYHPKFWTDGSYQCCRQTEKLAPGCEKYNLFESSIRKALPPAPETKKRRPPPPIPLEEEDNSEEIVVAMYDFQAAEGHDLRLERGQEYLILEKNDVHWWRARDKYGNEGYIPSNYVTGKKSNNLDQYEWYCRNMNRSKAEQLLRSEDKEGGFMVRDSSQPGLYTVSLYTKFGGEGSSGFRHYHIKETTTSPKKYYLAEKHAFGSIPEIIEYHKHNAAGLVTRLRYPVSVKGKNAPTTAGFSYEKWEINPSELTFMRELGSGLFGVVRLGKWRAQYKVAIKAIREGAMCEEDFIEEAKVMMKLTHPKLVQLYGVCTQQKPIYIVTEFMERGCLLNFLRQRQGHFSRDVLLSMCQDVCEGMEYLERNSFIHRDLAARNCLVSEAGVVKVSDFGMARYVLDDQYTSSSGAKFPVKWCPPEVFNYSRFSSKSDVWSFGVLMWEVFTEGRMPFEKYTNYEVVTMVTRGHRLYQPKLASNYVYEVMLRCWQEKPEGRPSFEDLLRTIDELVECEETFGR
# Sequence of UniProt Q8TDU6 (whole entry, looked up): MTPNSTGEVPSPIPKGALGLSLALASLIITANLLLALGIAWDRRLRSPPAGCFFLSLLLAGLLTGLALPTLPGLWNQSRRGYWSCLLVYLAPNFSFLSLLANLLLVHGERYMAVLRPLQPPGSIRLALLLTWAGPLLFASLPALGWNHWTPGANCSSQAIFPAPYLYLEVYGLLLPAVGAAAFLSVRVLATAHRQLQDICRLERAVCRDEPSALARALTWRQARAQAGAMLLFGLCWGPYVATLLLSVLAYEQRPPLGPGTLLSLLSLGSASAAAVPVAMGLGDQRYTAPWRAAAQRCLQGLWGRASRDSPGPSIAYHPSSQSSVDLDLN
# Sequence of UniProt P51812 (whole entry, looked up): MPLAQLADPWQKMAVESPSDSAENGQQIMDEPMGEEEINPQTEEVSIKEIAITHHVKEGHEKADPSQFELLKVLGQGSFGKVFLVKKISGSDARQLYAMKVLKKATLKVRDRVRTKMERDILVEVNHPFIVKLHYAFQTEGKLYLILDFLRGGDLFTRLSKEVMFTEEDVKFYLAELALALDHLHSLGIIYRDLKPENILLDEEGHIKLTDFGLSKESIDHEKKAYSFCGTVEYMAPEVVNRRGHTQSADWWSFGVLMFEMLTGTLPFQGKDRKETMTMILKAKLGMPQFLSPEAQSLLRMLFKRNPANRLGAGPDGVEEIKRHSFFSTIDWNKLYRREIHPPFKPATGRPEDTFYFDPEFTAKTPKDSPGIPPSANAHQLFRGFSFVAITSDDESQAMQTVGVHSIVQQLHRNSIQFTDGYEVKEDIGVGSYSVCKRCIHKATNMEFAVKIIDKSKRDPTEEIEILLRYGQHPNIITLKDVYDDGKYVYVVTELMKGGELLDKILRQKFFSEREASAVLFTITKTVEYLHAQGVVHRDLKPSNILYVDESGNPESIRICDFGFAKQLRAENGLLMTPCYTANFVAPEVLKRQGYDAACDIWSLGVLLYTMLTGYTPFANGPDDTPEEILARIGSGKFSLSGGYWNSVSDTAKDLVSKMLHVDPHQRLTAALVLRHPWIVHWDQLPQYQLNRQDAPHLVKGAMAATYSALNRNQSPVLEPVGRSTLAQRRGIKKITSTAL
# Sequence of UniProt P08069 (whole entry, looked up): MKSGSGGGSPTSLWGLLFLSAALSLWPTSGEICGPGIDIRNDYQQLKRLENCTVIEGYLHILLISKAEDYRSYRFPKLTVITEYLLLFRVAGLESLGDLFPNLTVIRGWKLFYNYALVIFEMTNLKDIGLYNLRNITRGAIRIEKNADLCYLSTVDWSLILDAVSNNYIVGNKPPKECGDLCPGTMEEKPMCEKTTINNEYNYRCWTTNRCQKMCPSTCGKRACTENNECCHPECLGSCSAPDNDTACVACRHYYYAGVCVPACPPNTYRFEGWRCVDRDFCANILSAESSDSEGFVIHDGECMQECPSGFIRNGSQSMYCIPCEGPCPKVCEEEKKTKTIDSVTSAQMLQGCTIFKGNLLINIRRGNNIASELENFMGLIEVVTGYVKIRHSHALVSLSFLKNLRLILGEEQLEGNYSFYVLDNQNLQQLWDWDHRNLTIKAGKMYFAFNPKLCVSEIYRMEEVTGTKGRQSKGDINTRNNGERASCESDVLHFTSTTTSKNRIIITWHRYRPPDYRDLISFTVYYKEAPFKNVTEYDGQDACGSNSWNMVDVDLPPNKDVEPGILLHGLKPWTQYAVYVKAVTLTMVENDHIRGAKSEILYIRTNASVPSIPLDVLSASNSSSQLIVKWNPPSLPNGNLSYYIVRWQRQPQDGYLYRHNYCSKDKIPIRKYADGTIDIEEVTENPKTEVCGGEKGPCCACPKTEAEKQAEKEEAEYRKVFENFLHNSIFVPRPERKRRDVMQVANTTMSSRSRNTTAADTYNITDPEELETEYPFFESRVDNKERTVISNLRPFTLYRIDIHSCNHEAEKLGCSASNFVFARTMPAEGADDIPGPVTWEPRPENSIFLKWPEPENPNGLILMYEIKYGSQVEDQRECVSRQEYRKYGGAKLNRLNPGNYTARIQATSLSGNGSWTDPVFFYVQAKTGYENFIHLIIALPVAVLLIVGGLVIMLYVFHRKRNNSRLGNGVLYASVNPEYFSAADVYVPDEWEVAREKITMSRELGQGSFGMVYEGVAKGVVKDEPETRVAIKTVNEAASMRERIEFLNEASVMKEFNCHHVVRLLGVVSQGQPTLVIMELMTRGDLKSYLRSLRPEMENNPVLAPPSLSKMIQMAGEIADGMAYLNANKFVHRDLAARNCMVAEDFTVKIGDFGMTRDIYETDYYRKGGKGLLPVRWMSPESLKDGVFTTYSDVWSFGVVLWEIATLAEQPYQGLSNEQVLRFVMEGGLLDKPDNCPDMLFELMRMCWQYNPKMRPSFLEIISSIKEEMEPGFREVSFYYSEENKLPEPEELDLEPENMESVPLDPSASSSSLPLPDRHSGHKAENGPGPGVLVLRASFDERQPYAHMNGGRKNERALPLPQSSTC
# Sequence of UniProt Q13153 (whole entry, looked up): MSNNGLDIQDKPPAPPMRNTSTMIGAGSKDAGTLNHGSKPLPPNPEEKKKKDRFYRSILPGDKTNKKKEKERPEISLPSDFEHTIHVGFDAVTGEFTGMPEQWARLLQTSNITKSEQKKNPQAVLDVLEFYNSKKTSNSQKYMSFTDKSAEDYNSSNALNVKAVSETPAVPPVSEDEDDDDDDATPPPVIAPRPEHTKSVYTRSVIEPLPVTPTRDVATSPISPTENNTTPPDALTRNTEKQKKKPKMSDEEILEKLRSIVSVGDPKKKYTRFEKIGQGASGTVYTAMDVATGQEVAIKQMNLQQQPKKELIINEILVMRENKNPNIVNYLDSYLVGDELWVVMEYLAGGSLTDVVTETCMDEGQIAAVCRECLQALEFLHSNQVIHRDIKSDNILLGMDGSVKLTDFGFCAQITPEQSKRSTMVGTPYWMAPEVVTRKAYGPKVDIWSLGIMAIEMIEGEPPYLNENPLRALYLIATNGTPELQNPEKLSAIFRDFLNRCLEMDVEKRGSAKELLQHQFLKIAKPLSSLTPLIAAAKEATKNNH
# Sequence of UniProt P29317 (whole entry, looked up): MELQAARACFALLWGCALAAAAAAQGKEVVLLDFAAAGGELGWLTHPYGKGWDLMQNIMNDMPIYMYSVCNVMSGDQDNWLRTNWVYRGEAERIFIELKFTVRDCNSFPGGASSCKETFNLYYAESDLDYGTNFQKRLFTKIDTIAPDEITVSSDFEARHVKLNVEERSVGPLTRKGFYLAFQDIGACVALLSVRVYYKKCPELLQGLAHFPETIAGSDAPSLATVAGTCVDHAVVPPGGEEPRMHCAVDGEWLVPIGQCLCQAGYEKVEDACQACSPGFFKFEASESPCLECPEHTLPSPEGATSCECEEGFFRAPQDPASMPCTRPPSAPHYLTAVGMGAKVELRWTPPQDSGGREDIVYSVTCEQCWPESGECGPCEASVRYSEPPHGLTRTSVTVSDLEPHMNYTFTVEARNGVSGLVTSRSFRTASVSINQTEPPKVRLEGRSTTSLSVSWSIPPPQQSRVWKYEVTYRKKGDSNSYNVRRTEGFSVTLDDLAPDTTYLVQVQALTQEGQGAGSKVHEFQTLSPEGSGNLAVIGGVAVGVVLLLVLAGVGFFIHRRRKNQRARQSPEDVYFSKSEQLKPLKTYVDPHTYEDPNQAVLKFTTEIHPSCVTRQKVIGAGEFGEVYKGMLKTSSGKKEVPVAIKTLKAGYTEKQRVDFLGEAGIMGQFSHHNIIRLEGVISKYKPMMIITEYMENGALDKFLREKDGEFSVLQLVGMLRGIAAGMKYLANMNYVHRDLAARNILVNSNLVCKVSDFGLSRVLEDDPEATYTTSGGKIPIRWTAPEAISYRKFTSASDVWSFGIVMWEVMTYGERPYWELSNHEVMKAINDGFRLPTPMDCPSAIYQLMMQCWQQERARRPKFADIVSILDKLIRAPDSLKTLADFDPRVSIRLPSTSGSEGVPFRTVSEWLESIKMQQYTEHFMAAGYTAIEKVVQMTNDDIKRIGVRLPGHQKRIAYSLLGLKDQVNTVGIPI

# Study 1
# Target: Calcium/calmodulin-dependent protein kinase type II subunit alpha (CAMK2A, Homo sapiens, UniProt Q9UQM7)
# Sequence of UniProt Q9UQM7 (whole entry, looked up): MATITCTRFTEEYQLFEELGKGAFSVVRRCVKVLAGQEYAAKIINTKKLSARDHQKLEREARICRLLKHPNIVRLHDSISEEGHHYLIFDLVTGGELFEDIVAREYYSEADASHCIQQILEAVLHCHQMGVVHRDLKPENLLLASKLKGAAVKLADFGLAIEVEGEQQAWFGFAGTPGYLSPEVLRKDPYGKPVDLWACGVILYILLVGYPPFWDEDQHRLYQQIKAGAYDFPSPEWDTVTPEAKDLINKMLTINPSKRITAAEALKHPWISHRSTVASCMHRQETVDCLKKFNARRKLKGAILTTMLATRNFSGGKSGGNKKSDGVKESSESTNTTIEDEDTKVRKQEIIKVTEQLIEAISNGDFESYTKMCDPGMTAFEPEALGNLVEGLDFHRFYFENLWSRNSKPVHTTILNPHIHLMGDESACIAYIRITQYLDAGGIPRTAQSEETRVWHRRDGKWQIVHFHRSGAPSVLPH
# Observed: enzyme activity
# Action: inhibitor
# Tested at: 10 µM
SMILES,inhibition
CC1=C[C@]23C(=O)[C@H](C=C4COC(C)(C)OC4C24OC(C)(C)OC14)[C@@H]1[C@H](CC3C)C1(C)C (stereo partly shown),14%
CC(=O)OCc1cocc2c(C=O)ccc1-2,-12%
O=C1CCc2cc(OCCCCc3nnnn3C3CCCCC3)ccc2N1,4%
CC(C)=CCC[C@](C)(O)[C@H]1CC[C@]2(C)[C@@H]1[C@H](O)C[C@@H]1[C@@]3(C)CC[C@H](O[C@@H]4O[C@H](CO)[C@@H](O)[C@H](O)[C@H]4O[C@@H]4O[C@H](CO)[C@@H](O)[C@H](O)[C@H]4O)C(C)(C)[C@@H]3CC[C@]12C,-14%
CC(C)C[C@H](N)C(=O)N[C@@H](C)C(=O)O,11%
O=c1c(O)c(-c2ccccc2)oc2cc(O)cc(O)c12,-22%
CCCCCCCCCCCCCCCc1cccc(O)c1C(=O)O,-31%
C[C@@H]1O[C@@H](OC[C@H]2O[C@@H](OCCc3ccc(O)c(O)c3)[C@H](O)[C@@H](O)[C@@H]2OC(=O)/C=C/c2ccc(O)c(O)c2)[C@H](O)[C@H](O)[C@H]1O,-33%
COC(=O)Cc1ccc(O)cc1,-18%
CCCCOC(=O)c1ccccc1Nc1cccc(C(F)(F)F)c1,-3%
CC(=O)Oc1cc(C(C)C)c(OCCN(C)C)cc1C,-4%
C1CNCCNCCNCCN1,0%
CC#CCC(C)[C@@H](O)/C=C/[C@H]1[C@@H]2c3cccc(CCCC(=O)O)c3O[C@@H]2C[C@@H]1O (stereo partly shown),-4%
CSCC[C@H](NC(=O)[C@H](Cc1c[nH]c2ccccc12)NC(=O)CCNC(=O)OC(C)(C)C)C(=O)N[C@@H](CC(=O)O)C(=O)N[C@@H](Cc1ccccc1)C(N)=O,-4%
C[C@@H]1C[C@H]2O[C@@]3(O[C@@H]2C(C)(C)O)[C@H](O)[C@@]2(C)[C@@H]4CC[C@H]5C(C)(C)[C@@H](O[C@@H]6OC[C@@H](O)[C@H](O)[C@H]6O)CC[C@@]56C[C@@]46CC[C@]2(C)[C@@H]13,21%

# Study 2
# SMILES: NC(N)=NC(=O)c1nc(Cl)c(N2CCCCCC2)nc1N
# Observed: β-arrestin recruitment
# Action: agonist
# Technique: PRESTO-Tango
# Tested at: 10 µM
# Reference: untreated
target,fold over basal
"G-protein coupled receptor 12 (GPR12, Homo sapiens, UniProt P47775)",0.91
"CCR3 (Homo sapiens, UniProt P51677)",1.37
"CCKBR (Homo sapiens, UniProt P32239)",1.21
"NTSR1 (Homo sapiens, UniProt P30989)",1
"GRM4 (Homo sapiens, UniProt Q14833)",0.68 fold
"NPFFR1 (Homo sapiens, UniProt Q9GZQ6)",1.52
"Adhesion G-protein coupled receptor G5 (ADGRG5, Homo sapiens, UniProt Q8IZF4)",0.88
"CNR2 (Homo sapiens, UniProt P34972)",0.69
"CXCR1 (Homo sapiens, UniProt P25024)",1
"QRFPR (Homo sapiens, UniProt Q96P65)",0.77
"Mas-related G-protein coupled receptor member X4 (Homo sapiens, UniProt Q96LA9)",1.34
"GPBAR1 (Homo sapiens, UniProt Q8TDU6)",0.91 fold
"Probable G-protein coupled receptor 25 (GPR25, Homo sapiens, UniProt O00155)",0.86
"Probable G-protein coupled receptor 160 (GPR160, Homo sapiens, UniProt Q9UJ42)",0.85

# Study 3
# Compound: N#C/C(=C(/N)SC1C=CC=CC1)c1cccc(C(O)c2ccncc2)c1 (stereo not shown)
# Observed: enzyme activity
# Action: inhibitor
# Tested at: 0.5 µM
# Reference: control
target,remaining activity
"PAK1 (Homo sapiens, UniProt Q13153)",97.7%
"IGF1R (Homo sapiens, UniProt P08069)",105%
"CSNK1D (Homo sapiens, UniProt P48730)",101%
"Cyclin-dependent kinase 2, with cyclin E (CDK2, Homo sapiens, UniProt P24941)",80.6%
"SIK2 (Homo sapiens, UniProt Q9H0K1)",105%
"CAMKK1 (Homo sapiens, UniProt Q8N5S9)",103%
"PAK6 (Homo sapiens, UniProt Q9NQU5)",101%
"MUSK (Homo sapiens, UniProt O15146)",101%
"FLT1 (Homo sapiens, UniProt P17948)",87.5%
"CLK2 (Homo sapiens, UniProt P49760)",97.4%
"RPS6KA3 (Homo sapiens, UniProt P51812)",104%
"CAMK1 (Homo sapiens, UniProt Q14012)",100%
"EPHA2 (Homo sapiens, UniProt P29317)",101%
"PRKCQ (Homo sapiens, UniProt Q04759)",103%
"CSNK1E (Homo sapiens, UniProt P49674)",98.3%
"JAK1 (Homo sapiens, UniProt P23458)",107%
"TYRO3 (Homo sapiens, UniProt Q06418)",107%
"TEC (Homo sapiens, UniProt P42680)",101%
"MAP3K20 (Homo sapiens, UniProt Q9NYL2)",97.1%
"CLK1 (Homo sapiens, UniProt P49759)",109%
"EPHA6 (Homo sapiens, UniProt Q9UF33)",103%
"SGK2 (Homo sapiens, UniProt Q9HBY8)",99.9%

# Study 4
# Compound: Cc1c(C(=O)O)cc(-c2ccc(C3CCNCC3)cc2)c2ccc(-c3ccc(C(F)(F)F)cc3)cc12
# Technique: competition with immobilised ligand
# Tested at: 1 µM
target,observed,remaining binding [%]
"MAPK15 (Homo sapiens, UniProt Q8TD08)",binding,100
"STK32C (Homo sapiens, UniProt Q86UX6)",binding,100
"TEC (Homo sapiens, UniProt P42680)",binding,100
"PRKACB (Homo sapiens, UniProt P22694)",cell-free assay,84
"RET (Homo sapiens, UniProt P07949, V804M)",cell-free assay,98
"CSNK2A1 (Homo sapiens, UniProt P68400)",cell-free assay,100
"PIK3CA (Homo sapiens, UniProt P42336, E545A)",cell-free assay,100
"Ribosomal protein S6 kinase alpha-5, C-terminal kinase domain (RPS6KA5, Homo sapiens, UniProt O75582)",binding,100
"SBK3 (Homo sapiens, UniProt P0C264)",binding,80
"NUAK2 (Homo sapiens, UniProt Q9H093)",binding,100
"CSF1R (Homo sapiens, UniProt P07333)",cell-free assay,100
"INSRR (Homo sapiens, UniProt P14616)",binding,100
"BRAF (Homo sapiens, UniProt P15056)",cell-free assay,100
"PRPF4B (Homo sapiens, UniProt Q13523)",cell-free assay,100
"PIP5K1A (Homo sapiens, UniProt Q99755)",cell-free assay,70
"GAK (Homo sapiens, UniProt O14976)",binding,100
"Receptor-type tyrosine-protein kinase FLT3, autoinhibited (FLT3, Homo sapiens, UniProt P36888)",binding,100
"STK32B (Homo sapiens, UniProt Q9NY57)",binding,100
"SIK3 (Homo sapiens, UniProt Q9Y2K2)",binding,100
"Tyrosine-protein kinase ABL1, phosphorylated (ABL1, Homo sapiens, UniProt P00519, Y253F)",binding,87
"PRKD2 (Homo sapiens, UniProt Q9BZL6)",binding,100
"FES (Homo sapiens, UniProt P07332)",cell-free assay,100
"PLK4 (Homo sapiens, UniProt O00444)",binding,96
"PIK3CB (Homo sapiens, UniProt P42338)",cell-free assay,100
"PNCK (Homo sapiens, UniProt Q6P2M8)",cell-free assay,100

# Some of these lines once more (study 3):
target,remaining activity
"MAP3K20 (Homo sapiens, UniProt Q9NYL2)",97.1%
"Cyclin-dependent kinase 2, with cyclin E (CDK2, Homo sapiens, UniProt P24941)",80.6%
"JAK1 (Homo sapiens, UniProt P23458)",107%
"FLT1 (Homo sapiens, UniProt P17948)",87.5%
"PAK1 (Homo sapiens, UniProt Q13153)",97.7%
"TEC (Homo sapiens, UniProt P42680)",101%
"SGK2 (Homo sapiens, UniProt Q9HBY8)",99.9%
"CAMK1 (Homo sapiens, UniProt Q14012)",100%
"PAK6 (Homo sapiens, UniProt Q9NQU5)",101%
"EPHA6 (Homo sapiens, UniProt Q9UF33)",103%
"PRKCQ (Homo sapiens, UniProt Q04759)",103%
